# Results from different studies.
# Each numbered part is a random draw from the data of one study; scales do not carry over between parts.
# Sequence of UniProt Q04771 (whole entry, looked up): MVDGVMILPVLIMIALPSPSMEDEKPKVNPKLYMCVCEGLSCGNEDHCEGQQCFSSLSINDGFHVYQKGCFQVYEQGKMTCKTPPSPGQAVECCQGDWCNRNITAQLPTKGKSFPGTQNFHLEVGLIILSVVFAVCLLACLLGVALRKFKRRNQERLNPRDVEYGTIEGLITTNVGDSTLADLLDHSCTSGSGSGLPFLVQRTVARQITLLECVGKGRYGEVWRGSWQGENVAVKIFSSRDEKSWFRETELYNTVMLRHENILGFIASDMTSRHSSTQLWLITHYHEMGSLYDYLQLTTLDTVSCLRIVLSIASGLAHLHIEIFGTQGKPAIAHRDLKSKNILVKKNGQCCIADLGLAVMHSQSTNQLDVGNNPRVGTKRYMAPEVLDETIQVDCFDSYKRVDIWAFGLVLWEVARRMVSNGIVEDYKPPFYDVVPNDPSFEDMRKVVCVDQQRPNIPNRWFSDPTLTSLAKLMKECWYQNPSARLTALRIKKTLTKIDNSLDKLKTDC
# Sequence of UniProt P42336 (whole entry, unmodified, looked up): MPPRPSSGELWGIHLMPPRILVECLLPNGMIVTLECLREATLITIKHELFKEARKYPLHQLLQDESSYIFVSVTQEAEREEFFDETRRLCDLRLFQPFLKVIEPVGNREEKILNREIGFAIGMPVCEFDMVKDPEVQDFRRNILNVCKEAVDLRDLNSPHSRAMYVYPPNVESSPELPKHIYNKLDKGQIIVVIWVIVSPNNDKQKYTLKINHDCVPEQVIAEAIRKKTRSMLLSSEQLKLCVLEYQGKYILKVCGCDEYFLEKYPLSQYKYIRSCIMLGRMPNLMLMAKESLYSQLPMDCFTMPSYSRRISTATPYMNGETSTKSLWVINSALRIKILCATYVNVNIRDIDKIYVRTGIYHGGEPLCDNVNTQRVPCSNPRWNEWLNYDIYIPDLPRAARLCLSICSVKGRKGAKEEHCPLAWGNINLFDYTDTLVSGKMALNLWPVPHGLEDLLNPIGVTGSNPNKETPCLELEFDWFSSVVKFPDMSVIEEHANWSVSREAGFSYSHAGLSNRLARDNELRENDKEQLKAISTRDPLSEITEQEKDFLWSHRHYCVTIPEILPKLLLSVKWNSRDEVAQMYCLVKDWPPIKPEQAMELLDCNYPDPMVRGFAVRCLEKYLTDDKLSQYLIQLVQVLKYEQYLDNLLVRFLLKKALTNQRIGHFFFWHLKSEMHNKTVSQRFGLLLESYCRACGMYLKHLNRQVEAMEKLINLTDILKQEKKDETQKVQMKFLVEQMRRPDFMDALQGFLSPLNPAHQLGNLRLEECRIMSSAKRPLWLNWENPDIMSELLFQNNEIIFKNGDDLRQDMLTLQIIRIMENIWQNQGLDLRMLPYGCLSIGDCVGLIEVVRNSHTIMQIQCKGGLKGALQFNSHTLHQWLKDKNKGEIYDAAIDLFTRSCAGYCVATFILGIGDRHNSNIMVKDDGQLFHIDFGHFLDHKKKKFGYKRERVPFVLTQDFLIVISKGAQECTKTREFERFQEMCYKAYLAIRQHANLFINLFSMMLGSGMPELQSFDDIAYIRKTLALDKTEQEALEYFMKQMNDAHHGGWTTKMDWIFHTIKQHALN
# Sequence of UniProt P35916 (whole entry, looked up): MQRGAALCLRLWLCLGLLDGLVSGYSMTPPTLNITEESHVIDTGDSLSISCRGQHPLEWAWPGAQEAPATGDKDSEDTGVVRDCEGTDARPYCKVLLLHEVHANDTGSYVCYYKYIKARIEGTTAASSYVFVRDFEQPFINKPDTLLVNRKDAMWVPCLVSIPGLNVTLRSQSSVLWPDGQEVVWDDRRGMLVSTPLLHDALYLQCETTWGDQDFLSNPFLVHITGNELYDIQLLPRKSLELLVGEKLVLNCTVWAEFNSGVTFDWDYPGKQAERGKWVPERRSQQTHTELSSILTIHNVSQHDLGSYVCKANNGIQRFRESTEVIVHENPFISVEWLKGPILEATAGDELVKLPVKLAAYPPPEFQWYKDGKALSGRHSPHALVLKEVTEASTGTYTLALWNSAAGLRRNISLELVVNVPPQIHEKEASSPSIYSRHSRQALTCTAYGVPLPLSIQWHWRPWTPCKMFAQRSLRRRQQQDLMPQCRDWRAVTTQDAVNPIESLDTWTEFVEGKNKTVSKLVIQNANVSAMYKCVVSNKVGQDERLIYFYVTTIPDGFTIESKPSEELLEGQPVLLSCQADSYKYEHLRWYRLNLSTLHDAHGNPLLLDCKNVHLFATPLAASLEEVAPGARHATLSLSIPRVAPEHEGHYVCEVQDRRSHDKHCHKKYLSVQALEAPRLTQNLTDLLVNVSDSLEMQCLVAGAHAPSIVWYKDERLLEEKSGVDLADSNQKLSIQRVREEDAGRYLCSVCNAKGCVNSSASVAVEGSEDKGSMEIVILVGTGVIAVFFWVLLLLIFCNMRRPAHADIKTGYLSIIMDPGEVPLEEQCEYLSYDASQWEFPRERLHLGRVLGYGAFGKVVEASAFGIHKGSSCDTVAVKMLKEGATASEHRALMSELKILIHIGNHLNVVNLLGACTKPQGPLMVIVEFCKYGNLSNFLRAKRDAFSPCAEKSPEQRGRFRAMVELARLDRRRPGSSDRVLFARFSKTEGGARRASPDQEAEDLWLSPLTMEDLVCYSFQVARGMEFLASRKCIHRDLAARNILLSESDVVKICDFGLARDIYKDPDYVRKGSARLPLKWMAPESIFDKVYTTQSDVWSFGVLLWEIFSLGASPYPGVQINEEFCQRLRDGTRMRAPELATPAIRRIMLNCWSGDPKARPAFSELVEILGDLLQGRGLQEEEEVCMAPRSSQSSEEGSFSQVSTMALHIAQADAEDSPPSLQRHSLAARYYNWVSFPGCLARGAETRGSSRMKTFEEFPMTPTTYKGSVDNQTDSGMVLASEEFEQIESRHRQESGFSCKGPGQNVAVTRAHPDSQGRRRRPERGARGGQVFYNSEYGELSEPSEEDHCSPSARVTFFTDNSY
# Sequence of UniProt Q14680 (whole entry, looked up): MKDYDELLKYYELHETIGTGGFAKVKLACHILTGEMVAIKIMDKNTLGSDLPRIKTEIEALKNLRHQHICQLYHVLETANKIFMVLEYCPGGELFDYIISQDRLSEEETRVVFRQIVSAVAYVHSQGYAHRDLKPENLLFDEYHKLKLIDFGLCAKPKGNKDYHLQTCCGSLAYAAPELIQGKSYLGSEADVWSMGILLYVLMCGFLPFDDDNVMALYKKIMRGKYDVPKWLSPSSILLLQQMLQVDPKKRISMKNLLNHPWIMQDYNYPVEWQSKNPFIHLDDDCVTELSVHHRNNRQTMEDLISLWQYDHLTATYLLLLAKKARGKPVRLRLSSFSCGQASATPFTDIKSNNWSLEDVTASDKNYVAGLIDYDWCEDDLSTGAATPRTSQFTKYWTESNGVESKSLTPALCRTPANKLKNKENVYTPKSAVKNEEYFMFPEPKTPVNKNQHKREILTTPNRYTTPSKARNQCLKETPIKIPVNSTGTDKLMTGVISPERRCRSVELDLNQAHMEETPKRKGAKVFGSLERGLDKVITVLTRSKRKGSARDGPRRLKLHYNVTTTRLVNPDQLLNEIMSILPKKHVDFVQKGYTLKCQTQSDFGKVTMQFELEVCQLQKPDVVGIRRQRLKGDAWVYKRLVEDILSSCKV
# Sequence of UniProt Q32MK0 (whole entry, looked up): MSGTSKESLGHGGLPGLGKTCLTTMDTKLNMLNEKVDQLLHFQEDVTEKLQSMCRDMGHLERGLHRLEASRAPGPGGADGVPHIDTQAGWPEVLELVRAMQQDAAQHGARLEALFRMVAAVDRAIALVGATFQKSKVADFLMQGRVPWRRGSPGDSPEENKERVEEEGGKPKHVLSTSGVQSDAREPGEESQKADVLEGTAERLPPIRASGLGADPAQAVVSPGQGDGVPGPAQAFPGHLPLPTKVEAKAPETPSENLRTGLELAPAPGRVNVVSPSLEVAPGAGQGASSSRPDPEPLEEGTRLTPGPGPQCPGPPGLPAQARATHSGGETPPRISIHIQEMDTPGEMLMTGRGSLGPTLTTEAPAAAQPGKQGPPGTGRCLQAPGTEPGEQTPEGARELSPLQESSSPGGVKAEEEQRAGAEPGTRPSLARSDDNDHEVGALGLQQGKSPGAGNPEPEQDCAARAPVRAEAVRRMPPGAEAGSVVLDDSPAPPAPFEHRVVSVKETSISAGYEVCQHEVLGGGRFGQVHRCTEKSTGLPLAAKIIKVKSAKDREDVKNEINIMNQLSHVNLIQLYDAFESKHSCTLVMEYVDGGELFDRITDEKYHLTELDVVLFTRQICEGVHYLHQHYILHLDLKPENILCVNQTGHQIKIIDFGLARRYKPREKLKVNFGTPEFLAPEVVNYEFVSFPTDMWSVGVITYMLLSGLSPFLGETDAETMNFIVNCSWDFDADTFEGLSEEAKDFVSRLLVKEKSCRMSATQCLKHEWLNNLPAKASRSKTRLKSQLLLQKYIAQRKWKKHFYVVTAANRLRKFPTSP

# Series 1 — technique: trypan blue exclusion; time: 48 h; relative to: untreated
# Compound: O=C(NC1CCNCC1)c1[nH]ncc1NC(=O)c1c(Cl)cccc1Cl
cell line,conditions,viability [%]
HH,0.01 µM,102
HuT78,0.0001 µM,107
HH,0.05 µM,103
HH,0.5 µM,23.7
HuT78,10 µM,30.2
HuT78,0.5 µM,41.2

# Series 2 — observed: enzyme activity; action: inhibitor; tested at: 0.5 µM; relative to: control
# Target: Tyrosine-protein kinase ITK/TSK (ITK, Homo sapiens, UniProt Q08881)
# Sequence of UniProt Q08881 (whole entry, looked up): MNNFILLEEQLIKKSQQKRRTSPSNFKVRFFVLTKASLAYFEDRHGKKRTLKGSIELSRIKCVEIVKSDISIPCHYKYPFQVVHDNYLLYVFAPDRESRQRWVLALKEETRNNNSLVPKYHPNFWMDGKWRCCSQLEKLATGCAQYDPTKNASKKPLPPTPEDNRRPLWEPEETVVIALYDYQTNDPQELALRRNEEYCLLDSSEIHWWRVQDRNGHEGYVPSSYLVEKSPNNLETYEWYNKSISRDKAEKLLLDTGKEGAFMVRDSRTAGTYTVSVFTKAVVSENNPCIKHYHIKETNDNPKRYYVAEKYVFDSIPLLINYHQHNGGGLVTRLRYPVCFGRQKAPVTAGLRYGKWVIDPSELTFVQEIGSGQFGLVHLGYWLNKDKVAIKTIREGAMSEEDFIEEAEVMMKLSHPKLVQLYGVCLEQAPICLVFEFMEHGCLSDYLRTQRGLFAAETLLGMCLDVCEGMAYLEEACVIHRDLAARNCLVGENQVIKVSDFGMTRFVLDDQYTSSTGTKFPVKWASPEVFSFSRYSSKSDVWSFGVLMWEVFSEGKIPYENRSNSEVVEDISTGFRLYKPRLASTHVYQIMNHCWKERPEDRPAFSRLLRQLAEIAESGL
SMILES,remaining activity
Nc1ccc2ncnc(NCCc3ccc(Oc4ccccc4)cc3)c2c1,104%
CC(C)[C@H](CO)Nc1nc(Nc2cc(N)cc(Cl)c2)c2ncn(C(C)C)c2n1,80.2%
Cn1c2ccccc2c2c3c(c4c5ccccc5n(CCC#N)c4c21)CNC3=O,4.32%
COc1ccc(CNC(=O)Nc2ncc([N+](=O)[O-])s2)cc1,89.5%
C#Cc1cccc(Nc2ncnc3cc(OCCOC)c(OCCOC)cc23)c1,106%
CNC(=O)c1cc(Oc2ccc(NC(=O)Nc3ccc(Cl)c(C(F)(F)F)c3)cc2)ccn1,106%
CN(C)c1ccc(C=C2C(=O)Nc3ccccc32)cc1,99%
Oc1ccc(-c2nc(-c3ccncc3)c(-c3ccc(F)cc3)[nH]2)cc1,90.9%
Cc1cccc(-c2[nH]c(C(C)(C)C)nc2-c2ccc3c(c2)OCO3)n1,95.8%
O=S(=O)(c1cccc2cnccc12)N1CCCNCC1,90.7%
Nc1ncnc2n[nH]c(Nc3ccc(F)cc3)c12,93.9%
O=C(Nc1cccc(Nc2cc(Nc3cccc(C(F)(F)F)c3)ncn2)c1)C1CC1,97.2%
O=C(O)c1ccc2c3c1cccc3c(=O)n1c3ccccc3nc21,97.7%
COc1cc2ncnc(Nc3ccc(Oc4ccccc4)cc3)c2cc1OC,93.6%
OCC(O)CCON=C1C(c2c(O)[nH]c3ccccc23)=Nc2ccccc21 (stereo not drawn),34.8%
O=C1NC(=O)C(c2cn(CCCn3ccnc3)c3ccccc23)=C1Nc1ccccc1,93.9%
Cc1nc(-c2ccccc2)c(-c2ccncc2)o1,97.1%
NCCNc1ncc(C(N)=O)c(Nc2cccc(C(F)(F)F)c2)n1,93%
Nc1[nH]nc2nc3ccccc3nc12,101%
COc1ccc(OC)c2c(=S)c3ccccc3[nH]c12,101%
O=C1NC(=O)C(c2cn(CCCO)c3ncccc23)=C1c1cnccn1,84.7%

# Series 3 — observed: cell-free assay; technique: competition with immobilised ligand; tested at: 1 µM
# Structure (SMILES): CO[C@@H](C)c1c(Nc2ccc([C@H](N(C)C(=O)C3CCS(=O)(=O)CC3)C(F)(F)F)cc2)cnc2cc(Cl)nn12
target,remaining binding
"Serine/threonine-protein kinase Nek1 (NEK1, Homo sapiens, UniProt Q96PY6)",94%
"Wee1-like protein kinase (WEE1, Homo sapiens, UniProt P30291)",88%
"Vascular endothelial growth factor receptor 3 (FLT4, Homo sapiens, UniProt P35916)",89%
"Maternal embryonic leucine zipper kinase (MELK, Homo sapiens, UniProt Q14680)",59%
"Activin receptor type-1 (ACVR1, Homo sapiens, UniProt Q04771)",94%
"Ephrin type-A receptor 1 (EPHA1, Homo sapiens, UniProt P21709)",100%

# Series 4 — organism: Sarcocystis neurona; observed: parasite growth; tested at: 10 µM; time: 96 h; notes: second screen; relative to: untreated
SMILES,log2 fold change
COCc1c(C(C)C)nc(C(C)C)c(/C=C/[C@@H](O)C[C@@H](O)CC(=O)O)c1-c1ccc(F)cc1,-0.54
CN(C)CCC[C@@]1(c2ccc(F)cc2)OCc2cc(C#N)ccc21,0.35
COCCCOc1ccnc(C[S+]([O-])c2nc3ccccc3[nH]2)c1C (stereo not drawn),0.62
COCCOC(=O)C1=C(C)NC(C)=C(C(=O)OC(C)C)C1c1cccc([N+](=O)[O-])c1 (stereo not drawn),0.39
Nc1ccn([C@@H]2O[C@H](CO)[C@@H](O)[C@@H]2O)c(=O)n1,0.69
CCn1cc(C(=O)O)c(=O)c2ccc(C)nc21,0.36
NS(=O)(=O)c1cc2c(cc1Cl)NCNS2(=O)=O,0.04

# Series 5 — observed: enzyme activity; action: inhibitor; tested at: 1 µM
# Compound: CC#CC(=O)N1CCC[C@H]1c1nc(-c2ccc(C(=O)Nc3ccccn3)cc2)c2c(N)nccn12
target,inhibition
"Myosin light chain kinase (MYLK3, Homo sapiens, UniProt Q32MK0)",0%
"Phosphatidylinositol 4,5-bisphosphate 3-kinase catalytic subunit alpha isoform (PIK3CA, Homo sapiens, UniProt P42336, I800L)",33%
"Serine/threonine-protein kinase Nek6 (NEK6, Homo sapiens, UniProt Q9HC98)",8%
"Serine/threonine-protein kinase Nek10 (NEK10, Homo sapiens, UniProt Q6ZWH5)",0%
"Serine/threonine-protein kinase PLK4 (PLK4, Homo sapiens, UniProt O00444)",11%

# For quick reference, copied from above (series 4):
SMILES,log2 fold change
COCc1c(C(C)C)nc(C(C)C)c(/C=C/[C@@H](O)C[C@@H](O)CC(=O)O)c1-c1ccc(F)cc1,-0.54
CN(C)CCC[C@@]1(c2ccc(F)cc2)OCc2cc(C#N)ccc21,0.35
COCCCOc1ccnc(C[S+]([O-])c2nc3ccccc3[nH]2)c1C (stereo not drawn),0.62
COCCOC(=O)C1=C(C)NC(C)=C(C(=O)OC(C)C)C1c1cccc([N+](=O)[O-])c1 (stereo not drawn),0.39
Nc1ccn([C@@H]2O[C@H](CO)[C@@H](O)[C@@H]2O)c(=O)n1,0.69
CCn1cc(C(=O)O)c(=O)c2ccc(C)nc21,0.36
NS(=O)(=O)c1cc2c(cc1Cl)NCNS2(=O)=O,0.04
